Results pooled from the literature.
Each line is one published result; not all experiments were run side by side. ± gives the spread as reported.
CYP2D6: Cytochrome P450 2D6 (CYP2D6, Homo sapiens, UniProt P10635)
UniProt P10635, sequence (whole entry, looked up): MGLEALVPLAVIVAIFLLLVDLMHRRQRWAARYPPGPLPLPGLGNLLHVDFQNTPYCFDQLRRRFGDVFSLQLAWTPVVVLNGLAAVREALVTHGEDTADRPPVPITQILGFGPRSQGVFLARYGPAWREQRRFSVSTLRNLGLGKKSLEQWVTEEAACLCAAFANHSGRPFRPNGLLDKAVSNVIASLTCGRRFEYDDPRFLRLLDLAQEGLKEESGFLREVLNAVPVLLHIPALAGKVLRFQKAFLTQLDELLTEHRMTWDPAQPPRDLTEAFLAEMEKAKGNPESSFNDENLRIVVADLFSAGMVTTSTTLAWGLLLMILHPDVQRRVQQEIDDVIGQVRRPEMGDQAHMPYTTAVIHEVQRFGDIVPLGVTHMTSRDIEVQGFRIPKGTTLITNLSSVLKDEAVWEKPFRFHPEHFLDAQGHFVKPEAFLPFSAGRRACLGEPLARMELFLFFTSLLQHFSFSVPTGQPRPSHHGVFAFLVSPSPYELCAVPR
UniProt P08684, sequence (whole entry, looked up): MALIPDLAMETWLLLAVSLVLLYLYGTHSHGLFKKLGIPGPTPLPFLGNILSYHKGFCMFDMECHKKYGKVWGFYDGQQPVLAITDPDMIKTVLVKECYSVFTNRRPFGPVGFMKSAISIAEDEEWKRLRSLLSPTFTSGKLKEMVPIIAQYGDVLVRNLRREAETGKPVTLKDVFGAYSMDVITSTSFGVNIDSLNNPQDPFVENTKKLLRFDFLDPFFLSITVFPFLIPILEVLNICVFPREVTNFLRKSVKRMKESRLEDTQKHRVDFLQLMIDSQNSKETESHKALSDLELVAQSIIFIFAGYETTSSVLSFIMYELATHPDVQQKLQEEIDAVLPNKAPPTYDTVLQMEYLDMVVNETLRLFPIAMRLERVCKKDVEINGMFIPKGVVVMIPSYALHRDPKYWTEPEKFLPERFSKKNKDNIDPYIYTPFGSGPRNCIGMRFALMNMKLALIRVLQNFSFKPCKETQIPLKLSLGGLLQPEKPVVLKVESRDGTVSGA

SMILES	target	test	system	conditions	how to read	endpoint	result
Cc1ncc2n1-c1ccc(Cl)cc1C(c1ccccc1F)=NC2	UDP-glucuronosyltransferases	–	human cirrhosis patients	–	baseline: without cirrhosis	glucuronide metabolic ratio	decreased
CCCCCc1cc(O)c2c(c1)OC(C)(C)[C@@H]1CCC(C)=C[C@@H]21	recombinant human CYPs	substrate	–	10 µM	baseline: CYP3A4	M3 formation rate reduction	> 70%
CNC(=O)O/N=C/C(C)(C)S(C)(=O)=O	CYP2D6	inhibitor	human liver microsomes	2 µM, pH 7.4, together with: dextromethorphan	–	inhibition	2.69%
Cc1ncc2n1-c1ccc(Cl)cc1C(c1ccccc1F)=NC2	Cytochrome P450 3A4 (CYP3A4, Homo sapiens, UniProt P08684)	–	human, plasma	oral, 2 mg, alone, geometric LS mean	–	AUC(0-inf)	20.7 ng·h/mL
CNC(=O)O/N=C/C(C)(C)SC	CYP2D6	inhibitor	human liver microsomes	10 µM, pH 7.4, together with: dextromethorphan	–	inhibition	5.47%
OCc1ncc2n1-c1ccc(Cl)cc1C(c1ccccc1F)=NC2	UDP-glucuronosyltransferases	–	human cirrhosis patients	–	baseline: without cirrhosis	glucuronide metabolic ratio	decreased
C[C@]12CC[C@H](OS(=O)(=O)O)CC1=CC[C@@H]1[C@@H]2CC[C@]2(C)C(=O)CC[C@@H]12	sulfatase, human liver microsomes	substrate	–	pH 7.4, 37 °C	–	Km	18.1 ± 3.1 µM
CC[C@@H]1CN2CCc3c([nH]c4cccc(OC)c34)[C@H]2C[C@@H]1/C(=C\OC)C(=O)OC	CYP2D6	enzyme activity, inhibitor	human, liver microsomes	–	–	IC50	> 45 µM
CNC1(c2ccccc2Cl)CCCCC1=O (centres unmarked)	UDP-glucuronosyltransferase, human	4-MU glucuronidation, inhibitor	human liver microsomes	30 min, pH 7.4, together with: 4-methylumbelliferone 100 µM	–	IC50	> 1000 µM
C=C[C@H]1CN2CCc3c([nH]c4cccc(OC)c34)[C@@H]2C[C@@H]1/C(=C\OC)C(=O)OC	CYP2D6	enzyme activity, inhibitor	human, liver microsomes	–	–	IC50	6 µM
CNC(=O)O/N=C/C(C)(C)[S+](C)[O-] (centres unmarked)	CYP2D6	inhibitor	human liver microsomes	10 µM, pH 7.4, together with: dextromethorphan	–	inhibition	6.74%

Excerpt of the above:
SMILES	target	test	system	conditions	how to read	endpoint	result
Cc1ncc2n1-c1ccc(Cl)cc1C(c1ccccc1F)=NC2	Cytochrome P450 3A4 (CYP3A4, Homo sapiens, UniProt P08684)	–	human, plasma	oral, 2 mg, alone, geometric LS mean	–	AUC(0-inf)	20.7 ng·h/mL
CNC(=O)O/N=C/C(C)(C)SC	CYP2D6	inhibitor	human liver microsomes	10 µM, pH 7.4, together with: dextromethorphan	–	inhibition	5.47%
